Measurements collected from several papers.
Each numbered part is a random draw from the data of one study; scales do not carry over between parts.

Sample 1
Target: Prothrombin, mature alpha-thrombin (F2, Homo sapiens, UniProt P00734)
Method: aptamer microarray, sandwich
Molecule type: DNA with 2'F-ANA
Sample: in vitro
Concentration: 200 nM
Setting: whole 15-mer aptamer, many near background
With: Cy3 exosite-II aptamer, 400 nM
Reading: higher = stronger binding
Quantity: mean fluorescence intensity
Sequence: GGTTGGTGTGGTTGG
Modification = 2'F-ANA at 1 4 9 14 15; value = 48.7 a.u.
Modification = 2'F-ANA at 1 3 4 5 6 8 9 10 14; value = 68.3 a.u.
Modification = 2'F-ANA at 3 7 11 13 14 15; value = 740 a.u.
Modification = 2'F-ANA at 1 2 5 6 8 11 13 14 15; value = 50.1 a.u.
Modification = 2'F-ANA at 2 4 5 7 8 9 14; value = 44.5 a.u.
Modification = 2'F-ANA at 1 5 6 8 9 10 13; value = 89 a.u.

Sample 2
Target: Fragile X messenger ribonucleoprotein 1, C-terminal low-complexity region (Fmr1, Mus musculus, UniProt P35922)
Method: RNA Bind-n-Seq
Molecule type: RNA
Sample: in vitro
Concentration: 200 nM
Setting: whole 134-nt RNA, ends assumed
With: 150 mM LiCl
Relative to: input library
Reading: higher = stronger binding
Quantity: log2 enrichment
All molecules: 7-deaza-guanosine replaces G
Sequence = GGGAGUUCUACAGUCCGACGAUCUCAAGUCCUGUGCUACACAUCGUAUGUACCGAAUCGGAAAAAAAGGUUUGGAGGAAAGUAUUAUGUUACGCCGUUCGGAUCUGCACUUCCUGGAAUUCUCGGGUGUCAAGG; value = -1.36
Sequence = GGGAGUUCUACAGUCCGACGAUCUCCUCAAGUCCUGUGCUACACAUCGUAUGUACCGAAUCGGAGGGGAGGAGGGAAAGUAUUAUGUUACGCCGUUCGGAUCUGCACUUCCAGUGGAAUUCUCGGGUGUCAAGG; value = -1.24
Sequence = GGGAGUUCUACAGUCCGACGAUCCAAGUCCUGUGCUACACAUCGUAUGUACCGAAUCGGAAAAAGGUUUGGAAAAAGGAAAGUAUUAUGUUACGCCGUUCGGAUCUGCACUUCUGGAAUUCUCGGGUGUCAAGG; value = -1.75
Sequence = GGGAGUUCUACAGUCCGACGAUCUAACUUUAGAGGAGGAUCUGAUGGAUAUGGCAGUUGACGUGGAUUUGGGGAUGGCUAUAAUGGGUAUGGAGGAGGACCUGGAGGUGGCAAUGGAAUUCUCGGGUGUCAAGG; value = 0.166
Sequence = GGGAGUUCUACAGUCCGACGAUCCUCAAGUCCUGUGCUACACAUCGUAUGUACCGAAUCGGGAAGGAAGGGAAGGGGAAAGUAUUAUGUUACGCCGUUCGGAUCUGCACUUCCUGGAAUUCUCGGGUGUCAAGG; value = 0.236

Sample 3
Target: Phosphate system positive regulatory protein PHO4, full length, GST-tagged (PHO4, Saccharomyces cerevisiae, UniProt P07270, residues 1-312)
Method: competition protein-binding microarray
Molecule type: double-stranded DNA, one strand shown
Sample: in vitro
Concentration: 2 µM
Setting: whole 60-bp probe, lowest competitor level
With: Cbf1 competitor, 0.05 µM
Reading: higher = stronger binding
Quantity: fluorescence intensity
Construct (chain): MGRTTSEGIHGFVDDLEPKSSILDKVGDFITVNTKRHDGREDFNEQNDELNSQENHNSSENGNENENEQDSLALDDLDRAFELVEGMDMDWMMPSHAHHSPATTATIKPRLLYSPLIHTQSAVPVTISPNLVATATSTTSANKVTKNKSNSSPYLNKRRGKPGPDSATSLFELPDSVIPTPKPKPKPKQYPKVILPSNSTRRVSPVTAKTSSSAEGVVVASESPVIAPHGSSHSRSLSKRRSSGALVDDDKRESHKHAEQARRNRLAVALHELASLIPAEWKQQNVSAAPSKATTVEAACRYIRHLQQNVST
Sequence = GGTACAGACACAAAGCTCGTGCAAAGTGCTGTCCTAGTCTTGATTCGCTTGACGCTGCTG; value = 9880 a.u.
Sequence = AAATTGGATGAAGTTGTTGTGATGCTCAAGAAAGTTGTCTTGATTCGCTTGACGCTGCTG; value = 3890 a.u.
Sequence = GTCTTGTCTCATTGCTGAGTGGGTGTCCCCACTTCAGTCTTGATTCGCTTGACGCTGCTG; value = 4120 a.u.
Sequence = TGGTCTAGTCTTACCCACGCACTCGCAGGAACAAACGTCTTGATTCGCTTGACGCTGCTG; value = 9260 a.u.

Other studies, line by line
Molecule = PhoQ, residues 284 288 289 292 302 303 GASLAW; target = PhoP, residues 12 14 15 18 19 VQALL (Escherichia coli, UniProt P23836); assay = Sort-seq, item: YFP reporter; system = E. coli; conditions = PhoQ-PhoP variant library, with: 10 µM Mg2+; how to read = relative to: high Mg2+ state, higher = stronger signaling; quantity = fold induction; value = 9.04

Excerpt of the above (sample 3):
Sequence = GGTACAGACACAAAGCTCGTGCAAAGTGCTGTCCTAGTCTTGATTCGCTTGACGCTGCTG; value = 9880 a.u.
Sequence = GTCTTGTCTCATTGCTGAGTGGGTGTCCCCACTTCAGTCTTGATTCGCTTGACGCTGCTG; value = 4120 a.u.
